Results of several laboratories.
Compare with care: the assays were run in different laboratories. Numbers after ± are the reported error.

For COc1ccc2c(c1)c(CC(=O)O)c(C)n2C(=O)c1ccc(Cl)cc1, “log Freundlich coefficient” read 1.18 (SPME sorption isotherm; PBS).
With c1ccc2cc3ccccc3cc2c1 the log K(PDMS-water) was 3.88 ± 0.01 (fresh water; 12 (unit not given), 20 °C, S100 sampler, 100 µm).
CCOC(=O)COc1cccc2c1[n+]([O-])c1cc(Br)c(Br)cc1[n+]2[O-]: “log effective permeability” -5.24 (PAMPA; artificial membrane in PBS; 50 µM, 5 h).
For CC[C@H](C)[C@H](NC(C)=O)C(=O)N[C@H]1CSSC[C@@H](C(=O)N[C@H](C(N)=O)[C@@H](C)O)NC(=O)[C@H](CCCNC(=N)N)NC(=O)[C@H](Cc2c[nH]cn2)NC(=O)[C@](C)(CC)NC(=O)CNC(=O)[C@H](Cc2c[nH]c3ccccc23)NC(=O)[C@H](CC(=O)O)NC(=O)[C@H](CCC(N)=O)NC(=O)[C@H](Cc2c[nH]c3ccccc23)NC(=O)[C@H](C(C)C)NC1=O, “log retention factor” read 0.548 (RP-HPLC, C18; 28% acetonitrile isocratic; pH 7.4).
CCOC(=O)COc1cccc2c1[n+]([O-])c1ccccc1[n+]2[O-] — result for “log effective permeability”: -4.93 (PAMPA; artificial membrane in PBS; 50 µM, 5 h).
CC(=O)N[C@@H](CC(N)=O)C(=O)N[C@@H](CC(N)=O)C(=O)N[C@@H](CC(C)C)C(=O)N[C@H]1CSSC[C@@H](C(=O)N[C@H](C(N)=O)[C@@H](C)O)NC(=O)[C@H](CCCNC(=N)N)NC(=O)[C@H](Cc2c[nH]cn2)NC(=O)[C@H](C)NC(=O)CNC(=O)[C@H](Cc2c[nH]c3ccccc23)NC(=O)[C@H](CC(=O)O)NC(=O)[C@H](CCC(N)=O)NC(=O)[C@H](Cc2c[nH]c3ccccc23)NC(=O)[C@H](C(C)C)NC1=O: “log retention factor” 0.02 (RP-HPLC, C18; 28% acetonitrile isocratic; pH 7.4).
For c1ccc2c(c1)ccc1ccccc12, the log K(PDMS-water) was 3.78 ± 0.03 (fresh water; 12 (unit not given), 20 °C).
For [O-][n+]1c2cc3ccccc3cc2[n+]([O-])c2c(O)cccc21, “log effective permeability” read -7.23 (PAMPA; artificial membrane in PBS; 50 µM, 5 h).
With Cl.O=C(NO)c1ccc(CN2CCN(c3cccc4cc(S(=O)(=O)c5cccc(F)c5)cnc34)CC2)c(F)c1 the log k(IAM) was ~1.2 (IAM chromatography; IAM.PC.DD2 column; pH 7.4, acetonitrile gradient).
Under “log D brain polar lipid”, C[C@@H](Oc1cc(-c2cnn(C3CCNCC3)c2)cnc1N)c1c(Cl)ccc(F)c1Cl is recorded as 2.61 ± 0.01 (porcine brain polar lipids; 10 µM, pH 7.4, 0.2% DMSO).
CC(C)(C)C(=O)Oc1cccc2c1[n+]([O-])c1cccc(OC(=O)C(C)(C)C)c1[n+]2[O-]: “log effective permeability” -6.06 (PAMPA; artificial membrane in PBS; 50 µM, 5 h).
CC(=O)N[C@@H](CC(N)=O)C(=O)N[C@@H](CCCNC(=N)N)C(=O)N[C@@H](CC(C)C)C(=O)N[C@H]1CSSC[C@@H](C(=O)N[C@H](C(N)=O)[C@@H](C)O)NC(=O)[C@H](CCCNC(=N)N)NC(=O)[C@H](Cc2c[nH]cn2)NC(=O)[C@H](C)NC(=O)CNC(=O)[C@H](Cc2c[nH]c3ccccc23)NC(=O)[C@H](CC(=O)O)NC(=O)[C@H](CCC(N)=O)NC(=O)[C@H](Cc2c[nH]c3ccccc23)NC(=O)[C@H](C(C)C)NC1=O: “log retention factor” 0.167 (RP-HPLC, C18; 28% acetonitrile isocratic; pH 7.4).
CC(C)(Oc1ccc(Cl)cc1)C(=O)O: “log Freundlich coefficient” 0.64 (SPME sorption isotherm; PBS).
CC(=O)N[C@@H](CC(N)=O)C(=O)N[C@@H](CCCNC(=N)N)C(=O)N[C@@H](CC(C)C)C(=O)N[C@H]1CSSC[C@@H](C(=O)N[C@H](C(N)=O)[C@@H](C)O)NC(=O)[C@H](CCCNC(=N)N)NC(=O)[C@H](Cc2c[nH]cn2)NC(=O)[C@H](Cc2cccc3ccccc23)NC(=O)CNC(=O)[C@H](Cc2c[nH]c3ccccc23)NC(=O)[C@H](CC(=O)O)NC(=O)[C@H](CCC(N)=O)NC(=O)[C@H](Cc2c[nH]c3ccccc23)NC(=O)[C@H](C(C)C)NC1=O — result for “log retention factor”: 0.43 (isocratic RP-HPLC, C18; 32% acetonitrile, phosphate pH 7.4, 1% TFA; 25 °C).
C[Si](C)(C)O[Si](C)(C)O[Si](C)(C)C gave a log KOA of 3.75 (1-octanol/air; 25 °C).
Under “log Freundlich coefficient”, CC(C)(Oc1ccc(CCNC(=O)c2ccc(Cl)cc2)cc1)C(=O)O is recorded as 0.44 (SPME sorption isotherm; PBS).
Under “log retention factor”, CC[C@H](C)[C@H](NC(C)=O)C(=O)N[C@H]1CSSC[C@@H](C(=O)N[C@H](C(N)=O)[C@@H](C)O)NC(=O)[C@H](CCCNC(=N)N)NC(=O)[C@H](Cc2c[nH]cn2)NC(=O)[C@H](C)NC(=O)CNC(=O)[C@H](Cc2c[nH]c3ccccc23)NC(=O)[C@H](CC(=O)O)NC(=O)[C@H](CCC(N)=O)NC(=O)[C@H](Cc2c[nH]c3ccccc23)NC(=O)[C@H](C(C)C)NC1=O is recorded as -0.018 (isocratic RP-HPLC, C18; 32% acetonitrile, phosphate pH 7.4, 1% TFA; 25 °C).
The log Papp of O=C(O)c1ccc2c(c1)nc(Nc1cccc(Cl)c1)c1ccncc12 is reported as -6.14 (PAMPA; PBS; 5 h, pH 7.4).
CC[C@H](C)[C@H](NC(=O)[C@H](CCCNC(=N)N)NC(=O)[C@H](CCC(=O)O)NC(C)=O)C(=O)N[C@H]1CSSC[C@@H](C(=O)N[C@H](C(N)=O)[C@@H](C)O)NC(=O)[C@H](CCCNC(=N)N)NC(=O)[C@H](Cc2c[nH]cn2)NC(=O)[C@H](C)NC(=O)CNC(=O)[C@H](Cc2c[nH]c3ccccc23)NC(=O)[C@H](CC(=O)O)NC(=O)[C@H](CCC(N)=O)NC(=O)[C@H](Cc2c[nH]c3ccccc23)NC(=O)[C@H](C(C)C)NC1=O — result for “log retention factor”: -0.208 (RP-HPLC, C18; 28% acetonitrile isocratic; pH 7.4).
c1cc2nc(c1)CNCc1cccc(n1)CNC2 has a log K2 of 7.36 (protonation constant, potentiometry; 298 K, ionic strength 0.15 M NaCl).
CC(=O)N[C@@H](CC(N)=O)C(=O)N[C@@H](CC(N)=O)C(=O)N[C@@H](CC(C)C)C(=O)N[C@H]1CSSC[C@@H](C(=O)N[C@H](C(N)=O)[C@@H](C)O)NC(=O)[C@H](CCCNC(=N)N)NC(=O)[C@H](Cc2c[nH]cn2)NC(=O)[C@H](Cc2cccc3ccccc23)NC(=O)CNC(=O)[C@H](Cc2c[nH]c3ccccc23)NC(=O)[C@H](CC(=O)O)NC(=O)[C@H](CCC(N)=O)NC(=O)[C@H](Cc2c[nH]c3ccccc23)NC(=O)[C@H](C(C)C)NC1=O: “log retention factor” 0.32 (isocratic RP-HPLC, C18; 32% acetonitrile, phosphate pH 7.4, 1% TFA; 25 °C).
CCN(CC)C(=O)COc1cccc2c1[n+]([O-])c1ccccc1[n+]2[O-]: “log effective permeability” -5.2 (PAMPA; artificial membrane in PBS; 50 µM, 5 h).

A few entries again:
CC[C@H](C)[C@H](NC(=O)[C@H](CCCNC(=N)N)NC(=O)[C@H](CCC(=O)O)NC(C)=O)C(=O)N[C@H]1CSSC[C@@H](C(=O)N[C@H](C(N)=O)[C@@H](C)O)NC(=O)[C@H](CCCNC(=N)N)NC(=O)[C@H](Cc2c[nH]cn2)NC(=O)[C@H](C)NC(=O)CNC(=O)[C@H](Cc2c[nH]c3ccccc23)NC(=O)[C@H](CC(=O)O)NC(=O)[C@H](CCC(N)=O)NC(=O)[C@H](Cc2c[nH]c3ccccc23)NC(=O)[C@H](C(C)C)NC1=O — result for “log retention factor”: -0.208 (RP-HPLC, C18; 28% acetonitrile isocratic; pH 7.4).
CCOC(=O)COc1cccc2c1[n+]([O-])c1cc(Br)c(Br)cc1[n+]2[O-]: “log effective permeability” -5.24 (PAMPA; artificial membrane in PBS; 50 µM, 5 h).
